Assay results pooled from the literature.
A part holds a random share of what one study measured.
Chain of UniProt O94768 (whole entry, looked up): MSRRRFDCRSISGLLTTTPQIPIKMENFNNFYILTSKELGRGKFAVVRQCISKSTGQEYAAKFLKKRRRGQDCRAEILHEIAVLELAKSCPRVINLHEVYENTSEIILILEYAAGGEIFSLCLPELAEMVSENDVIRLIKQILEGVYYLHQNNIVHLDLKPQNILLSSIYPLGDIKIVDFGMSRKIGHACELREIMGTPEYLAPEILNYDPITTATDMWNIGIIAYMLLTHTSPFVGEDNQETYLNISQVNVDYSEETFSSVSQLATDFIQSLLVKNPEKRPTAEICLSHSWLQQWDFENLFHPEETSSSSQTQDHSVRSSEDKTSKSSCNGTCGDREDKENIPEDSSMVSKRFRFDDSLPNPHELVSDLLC
Chain of UniProt Q9NYL2 (whole entry, looked up): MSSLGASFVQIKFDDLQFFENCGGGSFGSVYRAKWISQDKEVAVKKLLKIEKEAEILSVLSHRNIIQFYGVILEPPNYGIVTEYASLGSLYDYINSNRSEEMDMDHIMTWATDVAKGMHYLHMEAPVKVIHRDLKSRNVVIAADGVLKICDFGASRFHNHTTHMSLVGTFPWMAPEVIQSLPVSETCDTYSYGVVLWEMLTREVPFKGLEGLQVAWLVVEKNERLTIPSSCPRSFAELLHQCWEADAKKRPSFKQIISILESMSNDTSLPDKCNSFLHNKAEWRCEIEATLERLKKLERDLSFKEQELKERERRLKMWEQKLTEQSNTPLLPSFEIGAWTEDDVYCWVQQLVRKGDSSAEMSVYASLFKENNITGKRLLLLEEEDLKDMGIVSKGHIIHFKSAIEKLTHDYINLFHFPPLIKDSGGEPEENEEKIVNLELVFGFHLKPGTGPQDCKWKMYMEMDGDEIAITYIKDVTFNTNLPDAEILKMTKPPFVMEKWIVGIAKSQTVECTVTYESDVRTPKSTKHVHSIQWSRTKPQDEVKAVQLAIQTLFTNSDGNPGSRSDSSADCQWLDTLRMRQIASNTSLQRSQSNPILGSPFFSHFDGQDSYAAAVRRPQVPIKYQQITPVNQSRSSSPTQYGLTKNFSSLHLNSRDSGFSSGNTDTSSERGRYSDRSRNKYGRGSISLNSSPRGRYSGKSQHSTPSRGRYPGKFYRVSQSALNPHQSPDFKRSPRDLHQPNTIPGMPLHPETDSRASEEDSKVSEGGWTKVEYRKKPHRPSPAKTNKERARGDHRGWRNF
Chain of UniProt Q9P286 (whole entry, looked up): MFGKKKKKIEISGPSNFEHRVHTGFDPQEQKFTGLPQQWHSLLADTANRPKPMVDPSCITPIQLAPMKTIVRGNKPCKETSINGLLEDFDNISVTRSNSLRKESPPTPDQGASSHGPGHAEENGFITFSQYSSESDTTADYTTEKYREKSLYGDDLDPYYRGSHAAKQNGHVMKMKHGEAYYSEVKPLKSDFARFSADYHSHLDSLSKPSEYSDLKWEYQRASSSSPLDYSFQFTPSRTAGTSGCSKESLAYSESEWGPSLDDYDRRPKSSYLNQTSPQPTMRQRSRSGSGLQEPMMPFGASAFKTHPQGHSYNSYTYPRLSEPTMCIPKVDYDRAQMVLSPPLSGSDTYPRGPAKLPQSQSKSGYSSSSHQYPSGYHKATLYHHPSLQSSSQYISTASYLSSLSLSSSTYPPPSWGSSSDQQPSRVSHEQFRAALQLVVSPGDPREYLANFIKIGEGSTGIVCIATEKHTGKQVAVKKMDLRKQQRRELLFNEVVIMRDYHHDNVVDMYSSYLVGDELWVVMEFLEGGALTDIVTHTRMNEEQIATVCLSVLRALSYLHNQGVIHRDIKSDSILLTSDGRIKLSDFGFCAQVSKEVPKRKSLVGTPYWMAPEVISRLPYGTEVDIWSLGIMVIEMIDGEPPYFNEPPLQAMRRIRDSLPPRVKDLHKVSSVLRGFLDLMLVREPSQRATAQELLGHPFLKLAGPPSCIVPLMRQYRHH
Chain of UniProt P0C1S8 (whole entry, looked up): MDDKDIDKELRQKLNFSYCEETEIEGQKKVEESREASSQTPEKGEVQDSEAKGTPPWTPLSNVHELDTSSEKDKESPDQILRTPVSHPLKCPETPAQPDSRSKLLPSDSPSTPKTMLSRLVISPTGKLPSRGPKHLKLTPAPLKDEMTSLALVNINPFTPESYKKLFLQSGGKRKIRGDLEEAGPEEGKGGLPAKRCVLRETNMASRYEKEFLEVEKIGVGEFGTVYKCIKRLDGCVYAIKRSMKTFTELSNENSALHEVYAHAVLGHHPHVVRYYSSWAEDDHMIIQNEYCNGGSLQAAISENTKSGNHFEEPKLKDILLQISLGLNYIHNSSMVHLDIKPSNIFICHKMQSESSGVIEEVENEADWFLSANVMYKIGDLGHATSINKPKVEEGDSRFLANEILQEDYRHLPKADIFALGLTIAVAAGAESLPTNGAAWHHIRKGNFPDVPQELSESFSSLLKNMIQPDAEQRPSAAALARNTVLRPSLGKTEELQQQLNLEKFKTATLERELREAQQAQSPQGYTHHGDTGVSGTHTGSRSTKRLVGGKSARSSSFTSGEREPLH
Chain of UniProt P41595 (whole entry, looked up): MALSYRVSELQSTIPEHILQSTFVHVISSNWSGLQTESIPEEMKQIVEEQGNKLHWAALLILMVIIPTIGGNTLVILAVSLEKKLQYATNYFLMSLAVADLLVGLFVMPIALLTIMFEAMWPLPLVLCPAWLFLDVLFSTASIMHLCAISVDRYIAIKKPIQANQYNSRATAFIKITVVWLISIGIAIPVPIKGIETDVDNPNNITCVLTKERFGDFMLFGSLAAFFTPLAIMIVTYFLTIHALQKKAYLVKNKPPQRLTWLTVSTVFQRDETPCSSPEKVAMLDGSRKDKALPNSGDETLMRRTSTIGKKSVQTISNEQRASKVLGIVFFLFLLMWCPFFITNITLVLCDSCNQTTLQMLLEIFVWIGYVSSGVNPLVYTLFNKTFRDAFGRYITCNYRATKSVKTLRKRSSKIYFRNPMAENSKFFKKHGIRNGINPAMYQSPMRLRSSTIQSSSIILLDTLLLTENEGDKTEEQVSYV
Chain of UniProt Q8TDC3 (whole entry, looked up): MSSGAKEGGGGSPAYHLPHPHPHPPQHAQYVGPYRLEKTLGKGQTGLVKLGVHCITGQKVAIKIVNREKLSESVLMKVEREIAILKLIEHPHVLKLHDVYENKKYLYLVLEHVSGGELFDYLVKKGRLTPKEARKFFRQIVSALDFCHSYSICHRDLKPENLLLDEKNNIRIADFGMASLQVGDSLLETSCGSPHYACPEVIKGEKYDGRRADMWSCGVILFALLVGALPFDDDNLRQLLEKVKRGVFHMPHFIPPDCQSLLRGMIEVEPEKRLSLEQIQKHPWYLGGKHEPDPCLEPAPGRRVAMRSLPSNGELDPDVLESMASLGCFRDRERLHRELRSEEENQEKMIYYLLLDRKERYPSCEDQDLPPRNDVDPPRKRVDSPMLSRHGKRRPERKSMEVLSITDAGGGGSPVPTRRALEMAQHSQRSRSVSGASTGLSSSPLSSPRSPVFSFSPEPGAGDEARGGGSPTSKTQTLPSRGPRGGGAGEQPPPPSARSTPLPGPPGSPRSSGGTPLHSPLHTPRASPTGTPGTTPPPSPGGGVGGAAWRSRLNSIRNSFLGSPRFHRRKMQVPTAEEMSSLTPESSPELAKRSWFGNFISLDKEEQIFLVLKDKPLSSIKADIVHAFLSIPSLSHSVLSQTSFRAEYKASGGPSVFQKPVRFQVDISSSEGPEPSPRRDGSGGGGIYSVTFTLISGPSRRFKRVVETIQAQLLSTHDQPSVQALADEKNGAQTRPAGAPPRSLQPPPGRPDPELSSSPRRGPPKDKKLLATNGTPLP

Set 1
Target: Calcium/calmodulin-dependent protein kinase type II subunit alpha (CAMK2A, Homo sapiens, UniProt Q9UQM7)
Chain of UniProt Q9UQM7 (whole entry, looked up): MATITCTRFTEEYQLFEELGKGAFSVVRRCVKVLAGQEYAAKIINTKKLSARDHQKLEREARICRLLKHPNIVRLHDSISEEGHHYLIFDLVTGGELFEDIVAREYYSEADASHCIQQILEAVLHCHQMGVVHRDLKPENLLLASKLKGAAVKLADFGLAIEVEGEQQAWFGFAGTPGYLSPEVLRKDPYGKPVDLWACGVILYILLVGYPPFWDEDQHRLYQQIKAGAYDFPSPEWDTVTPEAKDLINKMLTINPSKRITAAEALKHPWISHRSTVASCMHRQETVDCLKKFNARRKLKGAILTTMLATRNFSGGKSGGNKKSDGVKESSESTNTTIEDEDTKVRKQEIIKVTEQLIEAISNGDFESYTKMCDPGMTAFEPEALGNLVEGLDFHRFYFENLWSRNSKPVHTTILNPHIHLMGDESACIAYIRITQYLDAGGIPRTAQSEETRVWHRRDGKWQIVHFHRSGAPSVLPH
Effect on: enzyme activity
Mode: inhibitor
Tested at: 10 µM
| SMILES | inhibition [%] |
| --- | --- |
| COC1OC(COS(=O)(=O)O)C(OC2OC(C(=O)O)C(OC)C(O)C2OS(=O)(=O)O)C(O)C1NS(=O)(=O)O (centres unmarked) | -11 |
| O=C(CO)CO | -4 |
| Cc1nc(Nc2ccc(F)cc2)nc(N2CCc3ccccc3C2C)c1C (centres unmarked) | 5 |
| CC(=O)N(CC(O)CO)c1c(I)c(C(=O)NCC(O)CO)c(I)c(C(=O)NCC(O)CO)c1I (mixture of isomers) | -7 |
| O=C1C2CC3CC1CC(O)(C3)C2 | -8 |
| CC[C@H]1OC(=O)[C@H](C)[C@@H](O[C@H]2C[C@@](C)(OC)[C@@H](O)[C@H](C)O2)[C@H](C)[C@@H](O[C@@H]2O[C@H](C)C[C@H](N(C)C)[C@H]2O)[C@](C)(OC)C[C@@H](C)C(=O)[C@H](C)[C@@H](O)[C@]1(C)O | 0 |
| O[C@H]1[C@H]2c3cc4c(cc3CN3CCC(=C[C@@H]1O)[C@H]23)OCO4 | -3 |
| C=C(C)[C@H](CC=C(C)C)Cc1c(O)cc(O)c2c1O[C@H](c1ccccc1O)CC2=O | 5 |
| Cc1cc2c(s1)Nc1ccccc1N=C2N1CCN(C)CC1 | -1 |
| CN1Cc2c(Cl)cc(Cl)cc2[C@H](c2cccc(S(=O)(=O)NCCOCCOCCNC(=O)NCCCCNC(=O)NCCOCCOCCNS(=O)(=O)c3cccc([C@@H]4CN(C)Cc5c(Cl)cc(Cl)cc54)c3)c2)C1 | -5 |
| O=c1cc(-c2ccc(O)cc2)oc2cc(O)c([C@@H]3O[C@H](CO)[C@@H](O)[C@H](O)[C@H]3O)c(O)c12 | 19 |
| Cc1c(C)c2c(c(C)c1O)CC[C@@](C)(CCC[C@H](C)CCC[C@H](C)CCCC(C)C)O2 (relative stereo) | 0.41 |
| CCCCCCCCOc1ccccc1C(=O)Nc1ccc(C(=O)OCC[N+](C)(CC)CC)cc1 | -8 |

Set 2
Target: RAF proto-oncogene serine/threonine-protein kinase (RAF1, Homo sapiens, UniProt P04049)
Chain of UniProt P04049 (whole entry, looked up): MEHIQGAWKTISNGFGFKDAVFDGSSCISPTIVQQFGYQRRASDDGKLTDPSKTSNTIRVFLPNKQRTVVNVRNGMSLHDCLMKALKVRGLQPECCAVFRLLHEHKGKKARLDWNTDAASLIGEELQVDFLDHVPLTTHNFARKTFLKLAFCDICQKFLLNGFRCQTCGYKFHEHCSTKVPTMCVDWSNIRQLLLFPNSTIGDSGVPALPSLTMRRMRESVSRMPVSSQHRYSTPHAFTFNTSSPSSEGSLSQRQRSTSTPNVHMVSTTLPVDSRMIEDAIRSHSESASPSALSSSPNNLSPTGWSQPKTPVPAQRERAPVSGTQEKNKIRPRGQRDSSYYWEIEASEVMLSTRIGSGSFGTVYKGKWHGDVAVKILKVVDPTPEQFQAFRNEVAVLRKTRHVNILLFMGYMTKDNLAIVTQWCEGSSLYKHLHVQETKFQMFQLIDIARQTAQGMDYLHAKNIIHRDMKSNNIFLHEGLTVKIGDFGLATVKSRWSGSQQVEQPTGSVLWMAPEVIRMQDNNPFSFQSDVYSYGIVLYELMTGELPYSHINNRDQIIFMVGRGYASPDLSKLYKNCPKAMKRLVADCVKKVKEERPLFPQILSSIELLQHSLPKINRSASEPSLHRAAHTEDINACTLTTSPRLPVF
Effect on: enzyme activity
Mode: inhibitor
Tested at: 0.5 µM
Baseline: control
| SMILES | remaining activity [%] |
| --- | --- |
| O=C1C(Cl)=C(N2C(=O)CCC2=O)C(=O)c2ccccc21 | 93 |
| CN([C@@H](Cc1ccc(OS(=O)(=O)c2cccc3cnccc23)cc1)C(=O)N1CCN(c2ccccc2)CC1)S(=O)(=O)c1cccc2cnccc12 | 96.9 |
| O=C1c2ccccc2-c2n[nH]c3cccc1c23 | 88.2 |
| CCN(CC)CCNC(=O)c1c(C)[nH]c(/C=C2\C(=O)Nc3ccc(Cl)cc32)c1C | 117 |
| Nc1cccc(-c2cc3c(Oc4cccc(O)c4)ncnc3[nH]2)c1 | 85.9 |
| O=c1cc(-c2cccc3c2Sc2ccccc2S3)oc(N2CCOCC2)c1 | 94.7 |
| CN(C)C[C@H]1CCn2c(c(C3=C(c4cn(C)c5ccccc45)C(=O)NC3=O)c3ccccc32)C1 | 96.6 |
| Cc1nc2cc3nc(-c4cccs4)cnc3cc2n1C | 104 |
| CCOc1nc(NC(=O)Cc2cc(OC)ccc2OC)cc(N)c1C#N | 91.8 |
| c1ccc(-c2cnc(Nc3ccc(OCCN4CCCC4)cc3)s2)cc1 | 99 |
| c1ccc(-c2[nH]ncc2-c2ccnc3ccccc23)nc1 | 89.5 |
| N#Cc1c(NC(=O)c2cccc3ccccc23)sc2c1CCCC2 | 92.9 |
| O=C(NC(NC(=S)Nc1ccc(F)c([N+](=O)[O-])c1)C(Cl)(Cl)Cl)C(c1ccccc1)c1ccccc1 (centres unmarked) | 95.3 |
| O=C(Nc1cccc(Nc2nccc(Nc3cccc(C(F)(F)F)c3)n2)c1)C1CC1 | 98.7 |
| N#C/C(=C\c1ccc(O)c(O)c1)C(=O)NCc1ccccc1 | 92.8 |
| Ic1cccc(CSc2nnc(-c3ccncc3)o2)c1 | 92.8 |
| Cc1cc2ncc(-c3ccccc3)nc2cc1C | 95.6 |
| CCN(CC)C(=O)c1ccc(Nc2nc(OCC3CCCCC3)c3[nH]cnc3n2)cc1 | 86.3 |
| Cn1nc2c3c(cccc31)C(=O)c1ccccc1-2 | 87 |
| COc1cc2ncnc(Nc3cccc(Cl)c3)c2cc1OC | 78.4 |

Set 3
Compound: Cc1nc(Nc2ncc(C(=O)Nc3c(C)cccc3Cl)s2)cc(N2CCN(CCO)CC2)n1
Mode: inhibitor
| target | tested at | inhibition [%] |
| --- | --- | --- |
| PAK5 (Homo sapiens, UniProt Q9P286) | 10 µM | < 50 |
| MAPK11 (Homo sapiens, UniProt Q15759) | 1 µM | < 50 |
| BRSK1 (Homo sapiens, UniProt Q8TDC3) | 10 µM | < 50 |
| MAP2K1 (Homo sapiens, UniProt Q02750) | 1 µM | < 50 |
| STK17B (Homo sapiens, UniProt O94768) | 10 µM | < 50 |
| EPHA5 (Homo sapiens, UniProt P54756) | 10 µM | 100 |
| MAP3K20 (Homo sapiens, UniProt Q9NYL2) | 10 µM | 100 |
| CDK14 (Homo sapiens, UniProt O94921) | 10 µM | < 50 |
| NTRK1 (Homo sapiens, UniProt P04629) | 1 µM | < 50 |
| WEE2 (Homo sapiens, UniProt P0C1S8) | 10 µM | 100 |

Other studies, line by line
| SMILES | target | effect on | method | tested at | measurement | value |
| --- | --- | --- | --- | --- | --- | --- |
| Cc1nc(Cc2cccc(C(F)(F)F)c2)sc1-c1ccc(C(N)=O)nc1 | 5-hydroxytryptamine receptor 2B (HTR2B, Homo sapiens, UniProt P41595) | binding | radioligand binding | 10 µM | inhibition | 33.7% |

Some of these lines once more (set 2):
| SMILES | remaining activity [%] |
| --- | --- |
| CN([C@@H](Cc1ccc(OS(=O)(=O)c2cccc3cnccc23)cc1)C(=O)N1CCN(c2ccccc2)CC1)S(=O)(=O)c1cccc2cnccc12 | 96.9 |
| O=C1c2ccccc2-c2n[nH]c3cccc1c23 | 88.2 |
| CCN(CC)CCNC(=O)c1c(C)[nH]c(/C=C2\C(=O)Nc3ccc(Cl)cc32)c1C | 117 |
| Nc1cccc(-c2cc3c(Oc4cccc(O)c4)ncnc3[nH]2)c1 | 85.9 |
| O=c1cc(-c2cccc3c2Sc2ccccc2S3)oc(N2CCOCC2)c1 | 94.7 |
